Assay results collected from several papers.
Each numbered part is a random draw from the data of one study; scales do not carry over between parts. Values joined by “and” are separate records of one study, mostly repeats; a detail may differ.

Study 1 — host: human; medium: microsomes or S9; concentration: 2 µM; time: 0.5 h
SMILES	remaining compound [%]
O=S(=O)(NCCCOC1CCCCC1)c1ccc(Cl)c(-c2nnn[nH]2)c1	44.3
Cc1ccc(Nc2c(-c3cc(Br)ccc3O)nc3ncccn23)c(C)c1	52.9
COc1ccc2c(n1)c1c(n2-c2ccccn2)CCC1	0.0375
CN(C)S(=O)(=O)N1CCN(Cc2c(O)occ(CN3CCOCC3)c2=O)CC1	93.4
COC(=O)CC(c1ccc(OC)c(OC(C)C)c1)c1c(O)cc(C)[nH]c1=O (stereo not shown)	> 99
CC(C)(C)c1nc(CS(=O)(=O)c2nnc3c(Cl)cc(Cl)cn23)cs1	0.431

Study 2 — technique: competitive binding panel; concentration: 1 µM; baseline: vehicle
SMILES: Cc1ccc(NC(=O)c2ccnc(C(F)(F)F)c2)cc1-c1cc(OCCO)nc(N2CCOCC2)c1
target	item	remaining binding
PIM1 (Homo sapiens, UniProt P11309)		88%
ULK2 (Homo sapiens, UniProt Q8IYT8)		100%
DYRK1B (Homo sapiens, UniProt Q9Y463)		98%
CDK13 (Homo sapiens, UniProt Q14004)	CDC2L5	77%
WNK3 (Homo sapiens, UniProt Q9BYP7)		70%

Study 3 — read-out: enzyme activity; mode: inhibitor; concentration: 77 µM; baseline: untreated
Target: DNA polymerase theta, ATPase domain (POLQ, Homo sapiens, UniProt O75417)
SMILES	remaining activity
CN(C)c1nc(N)c(C(=O)NC(=N)N)nc1Cl	112%
OCCN1CCN(CCCN2c3ccccc3Sc3ccc(Cl)cc32)CC1	131% and 109%
O=C(O)CCC(=O)N1CCC[C@H]1C(=O)O	97.2%
N[C@H]1CONC1=O	101%
Cc1cccc(CN2CCN(C(c3ccccc3)c3ccc(Cl)cc3)CC2)c1 (stereo not shown)	101%
CNC(=O)c1cc(Oc2ccc(NC(=O)Nc3ccc(Cl)c(C(F)(F)F)c3)c(F)c2)ccn1	101%

Study 4 — read-out: enzyme activity; mode: inhibitor; concentration: 10 µM
Target: Calcium/calmodulin-dependent protein kinase type II subunit alpha (CAMK2A, Homo sapiens, UniProt Q9UQM7)
SMILES	inhibition
CC1=C(CC(=O)O)c2cc(F)ccc2/C1=C\c1ccc([S+](C)[O-])cc1 (stereo not shown)	15%
COc1c(O)cc2oc3cc(O)c(CC=C(C)C)c(O)c3c(=O)c2c1CC=C(C)C	45%
CC(=O)O[C@@H](CC=C(C)C)C1=CC(=O)c2c(O)ccc(O)c2C1=O	-11%
O=C(O)Cn1ccnc1	-38%
NCCCCCC(=O)O	-16%
CC(C)=CCc1cc2ccc(=O)oc2cc1O	-34%

Study 5 — technique: competition with immobilised ligand; concentration: 1 µM
SMILES: N#CC1(c2ccccn2)CCN(Cc2cc(C(=O)N3CCCC3)c(=O)n3ccccc23)CC1
target	read-out	remaining binding [%]
RIOK2 (Homo sapiens, UniProt Q9BVS4)	cell-free assay	95
Tyrosine-protein kinase ABL1, phosphorylated (ABL1, Homo sapiens, UniProt P00519, E255K)	binding	87
RET (Homo sapiens, UniProt P07949)	cell-free assay	74
EPHB4 (Homo sapiens, UniProt P54760)	cell-free assay	100
MAST1 (Homo sapiens, UniProt Q9Y2H9)	cell-free assay	82
MAP3K2 (Homo sapiens, UniProt Q9Y2U5)	cell-free assay	100
MAP4K4 (Homo sapiens, UniProt O95819)	cell-free assay	87
FGFR3 (Homo sapiens, UniProt P22607, G697C)	cell-free assay	98
MAPK10 (Homo sapiens, UniProt P53779)	cell-free assay	96
PRKAA2 (Homo sapiens, UniProt P54646)	cell-free assay	100
MAP3K13 (Homo sapiens, UniProt O43283)	cell-free assay	100
MAPK9 (Homo sapiens, UniProt P45984)	cell-free assay	97
AXL (Homo sapiens, UniProt P30530)	cell-free assay	78
MARK2 (Homo sapiens, UniProt Q7KZI7)	cell-free assay	100
Non-receptor tyrosine-protein kinase TYK2, JH2 (TYK2, Homo sapiens, UniProt P29597)	cell-free assay	100
TSSK1B (Homo sapiens, UniProt Q9BXA7)	cell-free assay	98
MAPK7 (Homo sapiens, UniProt Q13164)	cell-free assay	63
SIK3 (Homo sapiens, UniProt Q9Y2K2)	cell-free assay	100
Tyrosine-protein kinase JAK1, JH1 (JAK1, Homo sapiens, UniProt P23458)	cell-free assay	95
PDPK1 (Homo sapiens, UniProt O15530)	cell-free assay	81

Some of these lines once more (study 5):
target	read-out	remaining binding [%]
RIOK2 (Homo sapiens, UniProt Q9BVS4)	cell-free assay	95
Tyrosine-protein kinase ABL1, phosphorylated (ABL1, Homo sapiens, UniProt P00519, E255K)	binding	87
RET (Homo sapiens, UniProt P07949)	cell-free assay	74
EPHB4 (Homo sapiens, UniProt P54760)	cell-free assay	100
MAST1 (Homo sapiens, UniProt Q9Y2H9)	cell-free assay	82
